Results pooled from the literature.
Several values in a cell are separate wells, animals, samples, runs or records. ± marks the error that the study gave.
GBA2: Beta-glucosidase (GBA2, Homo sapiens, UniProt Q9HCG7)
Sequence of UniProt Q9HCG7 (whole entry, looked up): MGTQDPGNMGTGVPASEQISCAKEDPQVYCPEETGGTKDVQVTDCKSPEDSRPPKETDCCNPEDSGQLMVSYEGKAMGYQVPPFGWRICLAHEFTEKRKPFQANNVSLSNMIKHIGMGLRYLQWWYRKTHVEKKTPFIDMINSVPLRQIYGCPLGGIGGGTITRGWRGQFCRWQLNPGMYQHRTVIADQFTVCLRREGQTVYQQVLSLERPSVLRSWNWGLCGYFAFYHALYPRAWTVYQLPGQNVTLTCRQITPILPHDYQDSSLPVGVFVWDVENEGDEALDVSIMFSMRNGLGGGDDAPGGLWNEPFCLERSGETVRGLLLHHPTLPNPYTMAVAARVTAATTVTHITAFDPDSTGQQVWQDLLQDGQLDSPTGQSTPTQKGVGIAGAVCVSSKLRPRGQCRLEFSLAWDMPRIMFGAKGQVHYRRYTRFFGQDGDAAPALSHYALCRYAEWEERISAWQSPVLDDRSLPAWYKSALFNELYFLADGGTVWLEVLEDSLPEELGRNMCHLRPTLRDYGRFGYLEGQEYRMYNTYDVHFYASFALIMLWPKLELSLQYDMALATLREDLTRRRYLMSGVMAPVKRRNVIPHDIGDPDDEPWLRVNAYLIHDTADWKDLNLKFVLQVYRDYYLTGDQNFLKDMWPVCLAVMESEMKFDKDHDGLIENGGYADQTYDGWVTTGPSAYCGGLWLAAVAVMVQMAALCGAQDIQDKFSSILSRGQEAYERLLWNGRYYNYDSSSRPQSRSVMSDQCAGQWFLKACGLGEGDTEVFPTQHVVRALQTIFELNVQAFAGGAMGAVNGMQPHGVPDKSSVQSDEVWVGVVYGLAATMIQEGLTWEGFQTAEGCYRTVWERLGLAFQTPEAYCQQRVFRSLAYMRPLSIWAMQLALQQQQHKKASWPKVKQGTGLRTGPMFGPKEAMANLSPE
B4GALT1: Beta-1,4-galactosyltransferase 1 (B4GALT1, Homo sapiens, UniProt P15291)
Sequence of UniProt P15291 (whole entry, looked up): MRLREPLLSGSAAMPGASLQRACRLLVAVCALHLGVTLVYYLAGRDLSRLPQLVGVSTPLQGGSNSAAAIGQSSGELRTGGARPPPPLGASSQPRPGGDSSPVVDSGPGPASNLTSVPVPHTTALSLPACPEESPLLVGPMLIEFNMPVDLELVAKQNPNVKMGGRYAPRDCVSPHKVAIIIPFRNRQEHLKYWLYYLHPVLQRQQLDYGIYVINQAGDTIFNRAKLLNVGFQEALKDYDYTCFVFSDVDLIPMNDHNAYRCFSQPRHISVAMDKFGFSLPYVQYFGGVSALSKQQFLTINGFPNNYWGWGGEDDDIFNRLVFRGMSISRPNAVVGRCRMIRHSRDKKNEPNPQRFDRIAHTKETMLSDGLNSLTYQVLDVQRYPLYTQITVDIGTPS
CASP3: Caspase-3 (CASP3, Homo sapiens, UniProt P42574)
Sequence of UniProt P42574 (whole entry, looked up): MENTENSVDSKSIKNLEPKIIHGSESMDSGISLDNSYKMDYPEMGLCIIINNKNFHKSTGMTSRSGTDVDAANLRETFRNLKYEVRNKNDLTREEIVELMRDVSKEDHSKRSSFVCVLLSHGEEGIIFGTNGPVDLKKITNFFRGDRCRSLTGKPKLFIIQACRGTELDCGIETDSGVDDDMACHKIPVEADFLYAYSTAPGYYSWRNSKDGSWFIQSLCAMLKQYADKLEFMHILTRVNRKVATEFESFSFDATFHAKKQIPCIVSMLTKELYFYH
Chymotrypsinogen A: Chymotrypsinogen A (Bos taurus, UniProt P00766)
LYPLAL1: Lysophospholipase-like protein 1 (LYPLAL1, Homo sapiens, UniProt Q5VWZ2)
Sequence of UniProt Q5VWZ2 (whole entry, looked up): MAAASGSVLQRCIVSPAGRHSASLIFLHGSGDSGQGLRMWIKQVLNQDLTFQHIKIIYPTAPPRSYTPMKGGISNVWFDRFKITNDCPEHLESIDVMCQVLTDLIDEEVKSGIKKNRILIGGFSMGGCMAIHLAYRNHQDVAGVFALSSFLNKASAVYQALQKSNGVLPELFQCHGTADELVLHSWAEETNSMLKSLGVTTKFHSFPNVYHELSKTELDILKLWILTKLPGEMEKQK
MTNR1A: Melatonin receptor type 1A (MTNR1A, Homo sapiens, UniProt P48039)
Sequence of UniProt P46089 (whole entry, looked up): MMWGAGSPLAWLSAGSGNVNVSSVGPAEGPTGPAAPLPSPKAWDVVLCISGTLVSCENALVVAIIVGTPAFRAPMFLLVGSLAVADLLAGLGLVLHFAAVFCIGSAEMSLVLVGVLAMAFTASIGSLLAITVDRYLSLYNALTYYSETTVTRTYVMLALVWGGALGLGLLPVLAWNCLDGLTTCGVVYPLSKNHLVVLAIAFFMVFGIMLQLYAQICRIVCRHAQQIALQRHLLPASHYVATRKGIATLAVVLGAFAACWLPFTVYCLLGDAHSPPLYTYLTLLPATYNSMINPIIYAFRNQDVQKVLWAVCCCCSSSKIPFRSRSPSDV
Sequence of UniProt P35821 (whole entry, looked up): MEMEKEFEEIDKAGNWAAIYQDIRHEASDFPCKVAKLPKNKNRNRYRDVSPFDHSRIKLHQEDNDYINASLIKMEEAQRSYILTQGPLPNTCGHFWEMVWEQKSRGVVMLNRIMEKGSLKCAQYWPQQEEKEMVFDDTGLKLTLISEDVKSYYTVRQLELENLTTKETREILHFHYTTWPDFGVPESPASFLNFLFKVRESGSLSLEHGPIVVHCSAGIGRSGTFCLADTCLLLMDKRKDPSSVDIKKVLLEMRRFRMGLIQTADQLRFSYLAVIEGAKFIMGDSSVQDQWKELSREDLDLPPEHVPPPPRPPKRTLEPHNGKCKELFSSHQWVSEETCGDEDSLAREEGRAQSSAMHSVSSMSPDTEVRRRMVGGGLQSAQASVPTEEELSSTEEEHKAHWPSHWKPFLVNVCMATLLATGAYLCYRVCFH
Sequence of UniProt P48039 (whole entry, looked up): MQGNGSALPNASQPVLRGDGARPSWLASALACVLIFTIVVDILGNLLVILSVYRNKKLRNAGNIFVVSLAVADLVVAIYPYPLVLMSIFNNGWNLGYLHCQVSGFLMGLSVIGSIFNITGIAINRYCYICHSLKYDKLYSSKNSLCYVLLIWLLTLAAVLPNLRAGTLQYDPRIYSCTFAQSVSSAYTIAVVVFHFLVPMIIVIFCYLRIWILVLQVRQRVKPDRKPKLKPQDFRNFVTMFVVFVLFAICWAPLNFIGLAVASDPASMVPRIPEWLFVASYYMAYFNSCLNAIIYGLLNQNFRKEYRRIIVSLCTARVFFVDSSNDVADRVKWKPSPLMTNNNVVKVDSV
Sequence of UniProt P39748 (whole entry, unmodified, looked up): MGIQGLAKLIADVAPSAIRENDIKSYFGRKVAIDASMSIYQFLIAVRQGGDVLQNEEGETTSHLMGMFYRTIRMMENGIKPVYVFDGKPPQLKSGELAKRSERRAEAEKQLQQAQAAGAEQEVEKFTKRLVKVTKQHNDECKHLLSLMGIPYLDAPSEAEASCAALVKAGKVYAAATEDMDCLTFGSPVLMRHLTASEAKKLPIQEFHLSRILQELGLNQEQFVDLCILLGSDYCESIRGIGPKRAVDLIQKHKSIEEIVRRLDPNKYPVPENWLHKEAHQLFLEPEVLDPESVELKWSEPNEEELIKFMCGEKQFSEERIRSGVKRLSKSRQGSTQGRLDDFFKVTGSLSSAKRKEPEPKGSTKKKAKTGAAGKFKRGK
Sequence of UniProt O60674 (whole entry, looked up): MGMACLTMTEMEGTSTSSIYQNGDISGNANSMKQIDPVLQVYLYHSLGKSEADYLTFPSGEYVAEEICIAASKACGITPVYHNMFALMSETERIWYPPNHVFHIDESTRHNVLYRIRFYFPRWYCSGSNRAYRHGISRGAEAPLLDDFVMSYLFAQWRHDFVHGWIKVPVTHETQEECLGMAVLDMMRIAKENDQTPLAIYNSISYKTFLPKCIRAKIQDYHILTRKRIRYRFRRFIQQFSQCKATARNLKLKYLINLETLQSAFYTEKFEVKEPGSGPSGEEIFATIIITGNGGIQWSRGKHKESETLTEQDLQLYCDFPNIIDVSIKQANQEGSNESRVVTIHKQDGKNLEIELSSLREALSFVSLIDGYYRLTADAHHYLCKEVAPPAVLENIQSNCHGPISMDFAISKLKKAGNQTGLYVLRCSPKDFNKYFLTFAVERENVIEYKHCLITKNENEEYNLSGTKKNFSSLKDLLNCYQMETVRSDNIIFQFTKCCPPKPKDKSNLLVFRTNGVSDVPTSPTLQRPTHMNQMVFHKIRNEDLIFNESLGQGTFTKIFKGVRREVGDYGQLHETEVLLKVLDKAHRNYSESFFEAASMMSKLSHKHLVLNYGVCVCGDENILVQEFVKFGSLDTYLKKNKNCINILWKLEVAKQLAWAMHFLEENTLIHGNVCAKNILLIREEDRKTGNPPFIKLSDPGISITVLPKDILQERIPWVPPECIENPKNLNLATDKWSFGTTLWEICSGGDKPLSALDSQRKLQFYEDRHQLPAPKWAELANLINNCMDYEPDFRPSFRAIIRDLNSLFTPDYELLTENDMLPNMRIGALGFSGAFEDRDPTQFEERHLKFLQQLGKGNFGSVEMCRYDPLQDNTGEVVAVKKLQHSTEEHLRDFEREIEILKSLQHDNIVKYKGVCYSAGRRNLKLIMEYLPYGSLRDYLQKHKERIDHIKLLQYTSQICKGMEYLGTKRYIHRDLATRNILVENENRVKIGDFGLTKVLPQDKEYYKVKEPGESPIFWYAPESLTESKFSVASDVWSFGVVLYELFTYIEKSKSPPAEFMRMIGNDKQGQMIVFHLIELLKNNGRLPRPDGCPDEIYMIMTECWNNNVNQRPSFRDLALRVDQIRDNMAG
Sequence of UniProt P50552 (whole entry, looked up): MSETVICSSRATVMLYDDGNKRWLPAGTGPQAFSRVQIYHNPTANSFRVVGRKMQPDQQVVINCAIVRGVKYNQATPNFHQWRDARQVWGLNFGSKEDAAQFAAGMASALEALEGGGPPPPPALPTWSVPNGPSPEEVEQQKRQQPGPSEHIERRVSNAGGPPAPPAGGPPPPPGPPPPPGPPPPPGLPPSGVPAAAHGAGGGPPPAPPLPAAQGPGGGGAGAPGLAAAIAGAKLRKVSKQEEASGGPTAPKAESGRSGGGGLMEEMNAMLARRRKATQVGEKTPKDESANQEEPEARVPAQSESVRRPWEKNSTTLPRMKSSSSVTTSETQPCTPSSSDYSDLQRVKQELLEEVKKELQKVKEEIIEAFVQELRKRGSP

Cc1ccc(CN)cc1  kcat of deuterated substrate (Maoa (Rattus norvegicus, UniProt P21396); substrate; pH 7.5, 25 °C): 0.025 ± 0.00167 s⁻¹
CC(C)CCC[C@@H](C)[C@H]1CC[C@H]2[C@@H]3CC=C4C[C@@H](OCCCCCN5C[C@H](O)[C@@H](O)[C@H](O)[C@@H]5CO)CC[C@]4(C)[C@H]3CC[C@]12C  selectivity ratio (GBA2; inhibitor, 4MU-β-D-glucopyranoside; HEK293T homogenates overexpressing GBA2; relative to: GBA1 IC50 over GBA2 IC50): 750
CC(=O)NC(Cc1ccccc1Cl)C(=O)N1CCCC12C=CC1CCC(C(=O)N3CCC4C=CC5C(C)CC(C(=O)O)N5C(=O)C43)N1C2=O (stereo not shown)  binding free energy (Vasodilator-stimulated phosphoprotein, EVH1 domain (VASP, Homo sapiens, UniProt P50552); fluorescence titration; 25 °C): -8.94 kcal/mol
CC[C@H](C)[C@H](NC(=O)N1CC(=O)Nc2ccccc21)C(=O)O  luminescence (B4GALT1; enzyme activity, inhibitor, UDP-Glo; 10 µM; lower means stronger inhibition): 65300 a.u.
CC(=O)N[C@@H](CCC(N)=O)C(=O)N[C@@H](CC(C)C)C(=O)N[C@@H](CCCC(=O)O)C(=O)N1CCC[C@H]1C(=O)N[C@@H](CC(=O)O)C(=O)COC(=O)c1c(C)cccc1C  kinact/KI (CASP3; enzyme activity, inhibitor): 421000 M⁻¹ s⁻¹
O=C(NCC1CC1)c1ccc(NC(=O)C(C(F)(F)F)C(F)(F)F)cc1  IC50 (Chymotrypsinogen A; enzyme activity, inhibitor): inactive
Cc1cccc(-c2ccc(COCCCCCN3C[C@H](O)[C@@H](O)[C@H](O)[C@H]3CO)cc2)c1  selectivity ratio (GBA2; inhibitor, 4MU-β-D-glucopyranoside; HEK293T homogenates overexpressing GBA2; relative to: GBA1 IC50 over GBA2 IC50): 125
N#CN1CC[C@H](C(=O)Nc2nc3c(s2)CN(C(=O)Cn2cc(CNC(=O)CCCC[C@@H]4SC[C@@H]5NC(=O)N[C@@H]54)nn2)CC3)C1  iBAQ abundance (USP9X (Homo sapiens, UniProt Q93008); probe binding, affinity probe, neutravidin pull-down LC-MS/MS; HEK293T, cell lysate; 5 µM, 1 h, mean of three replicates, unit not given; higher = more pulled down): 2.03e+06
Nc1nc(SCc2ccc(Cl)cc2)nn1S(=O)(=O)c1ccccc1F  probe labeling increase (LYPLAL1; enzyme activity, activator, gel-based ABPP; purified protein; concentration not given, with: FP-rhodamine; relative to: DMSO): 2.3 fold
OC[C@@H]1[C@@H](O)[C@H](O)[C@@H](O)CN1CCCCCOCc1ccccc1  selectivity ratio (GBA2; inhibitor, 4MU-β-D-glucopyranoside; HEK293T homogenates overexpressing GBA2; relative to: GCS IC50 over GBA2 IC50): 750
CC(C)[C@@H]1NC(=O)[C@H](Cc2ccccc2)NC(=O)CSC[C@@H](C(N)=O)NC(=O)[C@H](CCC(=O)O)NC(=O)[C@H](CO)NC(=O)[C@H](Cc2c[nH]c3cccc(Cl)c23)NC(=O)[C@H](C2CCCCC2)NC(=O)[C@H](C(C)C)NC(=O)[C@H](Cc2ccc(O)cc2)NC(=O)[C@H](CC(=O)O)NC(=O)[C@H](Cc2c[nH]c3ccccc23)NC(=O)[C@H](Cc2ccc(N)nc2)NC(=O)[C@H](Cc2c[nH]c3ccc(Cl)cc23)NC(=O)[C@H](CCC(=O)O)NC1=O  remaining activity (Interleukin-1 receptor-like 2 (IL1RL2, Homo sapiens, UniProt Q9HB29); reporter gene (SEAP), inhibitor, HEK-Blue IL-36R reporter; HEK-Blue IL-36R cells; 0.015 µM, 6 h, with: IL-36β 30 ng/mL): 90.9%
O=C1c2sc(-c3ccc(N4CCC(CO)CC4)nc3F)nc2CCN1c1cccnc1  inhibition (MTNR1A; ligand displacement, radioligand; 1 µM): 3%
CC(=O)c1cccc(S(=O)(=O)n2nc(SCc3ccc(Cl)cc3)nc2N)c1  probe labeling increase (LYPLAL1; enzyme activity, activator, gel-based ABPP; purified protein; concentration not given, with: FP-rhodamine; relative to: DMSO): 1.4 fold
Cn1c(=O)n(C2CCC(=O)NC2=O)c2ccc(C3CCN(CC(=O)Nc4cccc(CS(=O)(=O)N5CC[C@H](Nc6cccc(-c7sc(C(=O)O)c(OCC(=O)O)c7Cl)c6)CC5(C)C)c4)CC3)cc21 (stereo partly shown)  remaining protein (Tyrosine-protein phosphatase non-receptor type 1 (Mus musculus, UniProt P35821); degrader, Western blot; B16-F10; 0.1 µM, with: DMSO pretreatment): 9% and 3%
COC(=O)c1ccc(/N=N/c2cccc([B-](F)(F)F)c2)cc1.[K+]  switching factor (Chymotrypsinogen A; enzyme activity, inhibitor; with: Suc-AAPF-AMC; relative to: Ki cis over Ki trans): 5.4 ± 2.9
OC[C@@H]1[C@@H](O)[C@H](O)[C@@H](O)CN1CCCCCOCc1ccc(-c2ccc3c(c2)OCCCO3)cc1  selectivity ratio (GBA2; inhibitor, 4MU-β-D-glucopyranoside; HEK293T homogenates overexpressing GBA2; relative to: GBA1 IC50 over GBA2 IC50): 200
CC(C)CC(NC(=O)N1CC(=O)Nc2ccccc21)C(=O)O (stereo not shown)  luminescence (B4GALT1; enzyme activity, inhibitor, UDP-Glo; 100 µM; lower means stronger inhibition): 88700 a.u.
Cc1cnc2nc1Nc1cccc(c1)COC/C=C/COCc1cc(ccc1OCCN1CCOCC1)N2  remaining signal (Tyrosine-protein kinase JAK2, JH1 (JAK2, Homo sapiens, UniProt O60674); cell-free assay; 0.1 µM): 8%
CCC1CC2C(C)=CC3C(=O)C=CCC3C=CC(C)=CC2C(=O)O1 (stereo not shown)  fibril dissociation (Amyloid-beta precursor protein, amyloid-beta fibrils (APP, Homo sapiens, UniProt P05067); thioflavin T, item: Aβ42 pre-formed fibrils; 50 µM): 19.8%
C[C@@H](OCCCCCN1C[C@H](O)[C@@H](O)[C@H](O)[C@H]1CO)c1ccc(-c2ccccc2)cc1  selectivity ratio (GBA2; inhibitor, 4MU-β-D-glucopyranoside; HEK293T homogenates overexpressing GBA2; relative to: GCS IC50 over GBA2 IC50): 20
CC(=O)N[C@@H](CC(=O)O)C(=O)N[C@H](C(=O)N[C@@H](C)C(=O)N[C@@H](CC(=O)O)C(=O)COC(=O)c1c(C)cccc1C)[C@@H](C)OCc1ccccc1  kinact/KI (CASP3; enzyme activity, inhibitor): 2.07e+06 M⁻¹ s⁻¹
CC1(C)CN=C(c2ccc(-c3ccc(-c4ccc(C5=NCC(C)(C)CN5)cc4)o3)cc2)NC1  remaining activity (PRMT5 (Homo sapiens, UniProt O14744); enzyme activity, inhibitor, radiometric; 20 µM): 86.2%
CCCCCCCCCCCCC/C=C/C=O  isoTOP-ABPP competition ratio (TYMS (Homo sapiens, UniProt P04818); competitive isoTOP-ABPP; Ramos soluble proteome; 100 µM, with: iodoacetamide probe; relative to: DMSO over compound-treated, higher = stronger cysteine blockade): 0.9
COc1ccc2[nH]c(-c3cccc4ccccc34)c(CCNC(=O)CI)c2n1  Emax (MTNR1A; β-arrestin recruitment, agonist; CHO-K1; 90 min): 91%
OC[C@@H]1[C@@H](O)[C@H](O)[C@@H](O)CN1CCCCCOCc1ccc(-c2cc(C(F)(F)F)cc(C(F)(F)F)c2)cc1  selectivity ratio (GBA2; inhibitor, 4MU-β-D-glucopyranoside; HEK293T homogenates overexpressing GBA2; relative to: GBA1 IC50 over GBA2 IC50): 53
COC(=O)CN1CCCc2cc3cc(C(=O)NC(Cc4cccc(Cl)c4)C(=O)NCC=CS(=O)(=O)c4ccccc4)c(=O)oc3cc21 (stereo not shown)  kinact/Ki (Cathepsin B (CTSB, Homo sapiens, UniProt P07858); inhibitor; with: Z-Arg-Arg-pNA): 844 M⁻¹ s⁻¹
OC[C@@H]1[C@@H](O)[C@H](O)[C@@H](O)CN1CCCCCOCc1ccc2ccccc2c1  selectivity ratio (GBA2; inhibitor, 4MU-β-D-glucopyranoside; HEK293T homogenates overexpressing GBA2; relative to: GBA1 IC50 over GBA2 IC50): 1000
CCCCCC=CC=C1C(=O)C=CC1CC=CCCCC(=O)O (stereo not shown)  isoTOP-ABPP competition ratio (RACK1 (Homo sapiens, UniProt P63244); competitive isoTOP-ABPP, item: GNB2L1 cysteine peptide; proteome, soluble, MDA-MB-231; 100 µM, with: iodoacetamide probe; relative to: DMSO over compound-treated, higher = stronger cysteine blockade): 2.2
O=c1cc(NCCO)c2ccccc2o1  agonist activity (ADRA1B (Homo sapiens, UniProt P35368); calcium mobilization, agonist; COS-7; 500 µM; relative to: 3 µM ionomycin): 5.4 ± 1.22%
CC(C)Oc1cc(Cl)ccc1CNc1cc(-c2ccccc2)nc2ncnn12  cAMP luminescence (GPR3 (Homo sapiens, UniProt P46089); cAMP reporter; human cells; 10 µM; higher is more cAMP): 2900 a.u. and 1690 a.u. and 1880 a.u. and 6010 a.u. and 3250 a.u. and 27700 a.u. and 3180 a.u. and 11300 a.u.
CCCCCCCCCCCCCCCC(=O)N[C@H](CCC(=O)O)C(=O)NCCCC[C@H](NC(=O)[C@H](CCCCNC(=N)N)NC(=O)[C@H](CCC(N)=O)NC(=O)[C@H](Cc1c[nH]cn1)NC(=O)[C@H](CCCC)NC(=O)[C@H](CC(C)C)NC(=O)[C@H](CCC(N)=O)NC(=O)[C@@H](NC(=O)[C@H](CCC(=O)O)NC(=O)C(C)(C)NC(=O)[C@@H](NC(=O)C1(N)CCCC1)C(C)C)[C@@H](C)CC)C(N)=O  Emax (PTH1R (Homo sapiens, UniProt Q03431); cAMP response, agonist, GloSensor cAMP; GP-2.3; ligand-on phase): 85 ± 6.9%
O=C(O)/C=C\C(=O)c1ccc(O)cc1  luminescence (B4GALT1; enzyme activity, inhibitor, UDP-Glo; 10 µM; lower means stronger inhibition): 51400 a.u.
Cc1cnc(Nc2ccc3c(c2)CCN(C(=O)/C=C/C(=O)C2CCC(C)CC2)C3)nc1-c1cnn(C(C)C)c1 (stereo not shown)  selectivity ratio (JAK2 (Homo sapiens, UniProt O60674); ADP-Glo; relative to: IC50 JAK1 over IC50 JAK2): > 14.6
CC(C)=CCC/C(C)=C/CC/C(C)=C/COCCCCCN1C[C@H](O)[C@@H](O)[C@H](O)[C@@H]1CO  selectivity ratio (GBA2; inhibitor, 4MU-β-D-glucopyranoside; HEK293T homogenates overexpressing GBA2; relative to: GCS IC50 over GBA2 IC50): 25
O=c1c2sccc2n(CC2COc3ccccc3O2)c(=O)n1O (stereo not shown)  binding stoichiometry (Flap endonuclease 1 (Homo sapiens, UniProt P39748, R100A); ITC; concentration not given, pH 7.5, 25 °C, with: 8 mM Mg2+): 1.17
C=CC(=O)N1CCCC(n2c(=O)c3ncccc3n(Cc3ccc(Oc4ccccc4)cc3)c2=O)C1 (stereo not shown)  melting temperature shift (Copper homeostasis protein cutC homolog (CUTC, Homo sapiens, UniProt Q9NTM9); thermal proteome profiling, item: CUTC; unit not given; relative to: vehicle): 2.44
CC(=O)N[C@@H](Cc1ccc(C)cc1)C(=O)N[C@@H](CCCC(=O)O)C(=O)N[C@H](C(=O)N[C@@H](CC(=O)O)C(=O)COC(=O)c1c(C)cccc1C)C(C)(C)C  kinact/KI (CASP3; enzyme activity, inhibitor): 132000 M⁻¹ s⁻¹
CC[C@H](C)[C@H](NC(=O)[C@@H](N)CCCCN)C(=O)N1CCC[C@H]1C(=O)N[C@@H](Cc1ccc(O)cc1)C(=O)N[C@@H](Cc1ccccc1)C(=O)N[C@@H](Cc1c[nH]cn1)C(=O)N[C@@H](C)C(=O)NCC(=O)NCC(=O)N[C@@H](CO)C(=O)N[C@@H](CCCCN)C(=O)N[C@@H](CS)C(=O)N[C@@H](CO)C(=O)N[C@H](C(=O)N[C@@H](Cc1c[nH]c2ccccc12)C(=O)N1CCC[C@H]1C(=O)N[C@@H](CC(C)C)C(=O)N1CCC[C@H]1C(=O)N[C@@H](CCC(N)=O)C(=O)N1CCC[C@H]1C(=O)N[C@@H](CO)C(=O)O)[C@@H](C)OP(=O)(O)O  -TΔS (YWHAZ (Homo sapiens, UniProt P63104); ITC; 37 °C, one-set-of-sites model): -4.57 ± 0.167 kcal/mol
CC[C@H](C)[C@H](NC(=O)[C@H](CCC(=O)O)NC(=O)[C@H](Cc1ccc(I)cc1)NC(C)=O)C(=O)N[C@@H](CC(=O)O)C(=O)COC(=O)c1c(C)cccc1C  kinact/KI (CASP3; enzyme activity, inhibitor): 197000 M⁻¹ s⁻¹
CCCCCCCO[C@H]1CO[C@H](CO)[C@@H](O)[C@H](O)[C@@H]1O  -TΔS (Type 1 fimbrin D-mannose specific adhesin, lectin domain (fimH, Escherichia coli K-12, UniProt P08191); binding, isothermal titration calorimetry; 15 °C, global fit of two titrations): 0.311 kcal/mol

Some of these lines once more:
CC[C@H](C)[C@H](NC(=O)[C@@H](N)CCCCN)C(=O)N1CCC[C@H]1C(=O)N[C@@H](Cc1ccc(O)cc1)C(=O)N[C@@H](Cc1ccccc1)C(=O)N[C@@H](Cc1c[nH]cn1)C(=O)N[C@@H](C)C(=O)NCC(=O)NCC(=O)N[C@@H](CO)C(=O)N[C@@H](CCCCN)C(=O)N[C@@H](CS)C(=O)N[C@@H](CO)C(=O)N[C@H](C(=O)N[C@@H](Cc1c[nH]c2ccccc12)C(=O)N1CCC[C@H]1C(=O)N[C@@H](CC(C)C)C(=O)N1CCC[C@H]1C(=O)N[C@@H](CCC(N)=O)C(=O)N1CCC[C@H]1C(=O)N[C@@H](CO)C(=O)O)[C@@H](C)OP(=O)(O)O  -TΔS (YWHAZ (Homo sapiens, UniProt P63104); ITC; 37 °C, one-set-of-sites model): -4.57 ± 0.167 kcal/mol
OC[C@@H]1[C@@H](O)[C@H](O)[C@@H](O)CN1CCCCCOCc1ccc(-c2ccc3c(c2)OCCCO3)cc1  selectivity ratio (GBA2; inhibitor, 4MU-β-D-glucopyranoside; HEK293T homogenates overexpressing GBA2; relative to: GBA1 IC50 over GBA2 IC50): 200
CC(=O)N[C@@H](Cc1ccc(C)cc1)C(=O)N[C@@H](CCCC(=O)O)C(=O)N[C@H](C(=O)N[C@@H](CC(=O)O)C(=O)COC(=O)c1c(C)cccc1C)C(C)(C)C  kinact/KI (CASP3; enzyme activity, inhibitor): 132000 M⁻¹ s⁻¹
